Experimental data gathered from unrelated publications.
Each line is one published result; not all experiments were run side by side. Numbers after ± are the reported error.
Organism: Escherichia coli

`C[C@H]1[C@H](NC(=O)/C(=N\OC(C)(C)C(=O)O)c2csc(N)n2)C(=O)N1S(=O)(=O)O` gave an MIC of 4 µg/mL (agar dilution; CDC 1001728 NDM-1).
With `Cc1cc(C#N)ccc1C(=O)Nc1ccc(C(=O)N[C@@H](CC(N)=O)C(=O)Nc2ccc(C(=O)Nc3ccc(C(=O)Nc4ccc(C(=O)O)cc4)c(O)c3OC(C)C)cc2)cc1` the MIC was 0.03 µg/mL (K12 ΔtolC).
With `CC[C@H](C)[C@H](NC(=O)[C@H](CCCNC(=N)N)NC(=O)[C@H](CCCCN)NC(=O)[C@H](CC(C)C)NC(=O)[C@H](CCCCN)NC(=O)[C@H](CCCCN)NC(=O)CNC(=O)[C@H](Cc1ccccc1)NC(=O)[C@H](CC(N)=O)NC(=O)[C@H](CCCNC(=N)N)NC(=O)[C@@H](N)CC(C)C)C(=O)NCC(=O)N[C@@H](CCCCN)C(=O)N[C@@H](Cc1ccc(O)cc1)C(=O)N[C@H](C(=O)N[C@@H](CCCNC(=N)N)C(=O)N[C@@H](CC(N)=O)C(=O)N[C@H](C(=O)N[C@@H](C)C(=O)N[C@@H](CCC(N)=O)C(=O)N[C@@H](CCCCN)C(=O)N[C@H](C(=O)N[C@H](C(=O)N[C@H](C(=O)N[C@H](C(=O)N[C@@H](C)C(=O)N[C@@H](CCC(N)=O)C(=O)NCC(=O)N[C@@H](C)C(=O)N[C@@H](C)C(=O)NCC(=O)N[C@H](C(=O)N[C@@H](C)C(=O)N[C@@H](CCCCN)C(=O)O)C(C)C)C(C)C)[C@@H](C)O)C(C)C)C(C)C)C(C)C)[C@@H](C)O` the MIC was 1.2 µM (broth microdilution; K88, Mueller-Hinton broth; 37 °C).
`CC1(C)SC2C(NC(=O)C(NC(=O)C3=C(O)C(Cc4ccc(F)cc4)NC3=O)c3ccccc3)C(=O)N2C1C(=O)O` (centres unmarked) gave an MIC of 25 µg/mL (broth microdilution; Keio mutant JW5195-1; 18 h).
For `CC[C@H](C)[C@H](NC(=O)[C@H](CCCCN)NC(=O)[C@H](CCCCN)NC(=O)[C@H](CCCCN)NC(=O)[C@H](CCCCN)NC(=O)[C@H](CCCCN)NC(=O)[C@@H](N)CCCCN)C(=O)N[C@@H](CO)C(=O)N[C@@H](Cc1ccccc1)C(=O)N[C@@H](CC(C)C)C(=O)NCC(=O)N[C@@H](CO)C(=O)N[C@@H](CCCCN)C(=O)N[C@H](C(=O)N[C@H](C(=O)N[C@H](C(=O)N[C@@H](CC(C)C)C(=O)N[C@@H](CC(C)C)C(=O)N[C@@H](CCCCN)C(=O)N[C@@H](CCCNC(=N)N)C(N)=O)C(C)C)C(C)C)C(C)C`, the MIC was 8 µM (broth microdilution; ATCC 25922; highest value reported).
`C[C@@H](O)[C@H]1C(=O)N2C(C(=O)O)=C(S[C@@H]3CN[C@H](C(=O)N(C)C)C3)[C@H](C)[C@H]12` has an MIC of 0.5 µg/mL (DH10B expressing VIM-2/pBCSK-).
With `CC[C@H](C)[C@H](NC(=O)[C@H](CCCCN)NC(=O)[C@H](CCC(=O)O)NC(=O)[C@H](CCCCN)NC(=O)[C@H](CO)NC(=O)[C@H](CCCCN)NC(=O)[C@H](CCCNC(=N)N)NC(=O)[C@H](Cc1ccccc1)NC(=O)[C@H](Cc1ccccc1)NC(=O)[C@H](CC(=O)O)NC(=O)CNC(=O)[C@H](CC(C)C)NC(=O)[C@@H](N)CC(C)C)C(=O)NCC(=O)N[C@@H](CCCCN)C(=O)N[C@@H](CCC(=O)O)C(=O)N[C@@H](Cc1ccccc1)C(=O)N[C@@H](CCCCN)C(=O)N[C@@H](CCCNC(=N)N)C(=O)N[C@H](C(=O)N[C@H](C(=O)N[C@@H](CCC(N)=O)C(=O)N[C@@H](CCCNC(=N)N)C(=O)N[C@H](C(=O)N[C@@H](CCCCN)C(=O)N[C@@H](CC(=O)O)C(=O)N[C@@H](Cc1ccccc1)C(=O)N[C@@H](CC(C)C)C(=O)N[C@@H](CCCNC(=N)N)C(=O)N[C@@H](CC(N)=O)C(=O)N[C@@H](CC(C)C)C(=O)N[C@H](C(=O)N1CCC[C@H]1C(=O)N[C@@H](CCCNC(=N)N)C(=O)N[C@H](C(=O)N[C@@H](CCC(=O)O)C(=O)N[C@@H](CO)C(=O)O)[C@@H](C)O)C(C)C)[C@@H](C)CC)C(C)C)[C@@H](C)CC` the MIC was 4.2 µM (broth dilution; K12 BW25113; 18 h, 37 °C).
For `CC(C)Oc1c(NC(=O)c2ccc(NC(=O)[C@H](CC(N)=O)NC(=O)c3cc(F)c(/N=N/c4c(F)cccc4F)c(F)c3)cc2)ccc(C(=O)N/N=C/c2ccc(C(=O)O)s2)c1O`, the MIC was greater than 6.4 µg/mL (BW25113; 18 h, 37 °C, dark-adapted state).
With `C[C@@H](O)[C@H]1C(=O)N2C(C(=O)O)=C(S[C@@H]3CN[C@H](C(=O)N(C)C)C3)[C@H](C)[C@H]12` the MIC was 4 µg/mL (broth microdilution; DH5α with VIM-2 plasmid; compound alone).
`CC1(C)SC2C(NC(=O)C(NC(=O)C3=C(O)C(Cc4ccco4)NC3=O)c3ccccc3)C(=O)N2C1C(=O)O` (centres unmarked) gave an MIC of greater than 200 µg/mL (broth microdilution; isolate IU 356 A, KPC-3, VIM-1, TEM; together with: clavulanic acid 6 µg/mL).
For `C[C@@H](O)[C@H]1C(=O)N2C(C(=O)O)=C(S[C@@H]3CN[C@H](C(=O)N(C)C)C3)[C@H](C)[C@H]12`, the MIC was no more than 0.06 µg/mL (DH5α empty vector).
`CC[C@H](C)[C@H](NC(=O)[C@H](CCCNC(=N)N)NC(=O)[C@H](CCC(N)=O)NC(=O)[C@@H](NC(=O)[C@@H](NC(=O)[C@H](CCC(N)=O)NC(=O)[C@H](C)N)[C@@H](C)CC)C(C)C)C(=O)N[C@@H](CCCCN)C(=O)N[C@@H](CC(=O)O)C(=O)N[C@@H](Cc1ccccc1)C(=O)N[C@@H](CC(C)C)C(=O)N[C@@H](CCCNC(=N)N)C(N)=O` gave an MIC of 240 ± 86 µM (broth microdilution; K12; 16 h, 37 °C).
For `CC[C@H](C)[C@H](NC(=O)[C@H](CCCCN)NC(=O)[C@H](CCCCN)NC(=O)CNC(=O)[C@H](CCCCN)NC(=O)[C@H](CC(C)C)NC(=O)[C@H](CCCCN)NC(=O)[C@H](CCCNC(=N)N)NC(=O)[C@@H](NC(=O)[C@H](CC(C)C)NC(=O)[C@H](CCCNC(=N)N)NC(=O)[C@@H](N)CCCNC(=N)N)[C@@H](C)CC)C(=O)N[C@@H](Cc1ccc(O)cc1)C(=O)N[C@@H](CC(C)C)C(=O)N[C@@H](Cc1ccc(O)cc1)C(=O)N[C@@H](Cc1ccccc1)C(=O)N[C@@H](CCCCN)C(=O)N[C@@H](CC(C)C)C(=O)N[C@@H](CCC(N)=O)C(=O)N[C@@H](CC(C)C)C(=O)N[C@@H](CC(C)C)C(=O)N[C@@H](CCCCN)C(=O)N[C@@H](CCCCN)C(N)=O`, the MIC was 16 µM (broth microdilution; KCTC 1682, Mueller-Hinton broth; together with: FeCl3 4 µM).
`CC[C@H](C)[C@H](N)C(=O)N[C@@H](CC(C)C)C(=O)NCC(=O)N[C@H](CCCNC(=N)N)C(=O)N[C@H](C(=O)N[C@@H](Cc1c[nH]c2ccccc12)C(=O)N[C@@H](CCCCN)C(=O)NCC(=O)N[C@H](C(=O)N[C@@H](CCCCN)C(=O)N[C@@H](CC(=O)O)C(=O)N[C@H](C(=O)N[C@@H](CC(C)C)C(N)=O)[C@@H](C)CC)[C@@H](C)CC)[C@@H](C)CC` gave an MIC of 6.25 µM (broth microdilution; ATCC 25922, Mueller-Hinton broth; 16 h, 37 °C).
With `CC[C@H](C)[C@H](NC(=O)CNC(=O)[C@H](CC(=O)O)NC(=O)[C@H](CCCNC(=N)N)NC(=O)[C@@H](NC(=O)[C@H](CC(N)=O)NC(=O)[C@H](CCCNC(=N)N)NC(=O)CNC(=O)[C@@H](NC(=O)[C@H](CCCCN)NC(=O)[C@H](CCC(=O)O)NC(=O)[C@@H](NC(=O)[C@H](CCCCN)NC(=O)[C@H](CCCCN)NC(=O)[C@H](Cc1ccccc1)NC(=O)[C@@H](NC(=O)[C@H](CCC(=O)O)NC(=O)[C@H](Cc1c[nH]c2ccccc12)NC(=O)[C@@H](N)CCCNC(=N)N)[C@@H](C)CC)[C@@H](C)CC)C(C)C)C(C)C)C(=O)N[C@H](C(=O)N[C@@H](CCCCN)C(=O)N[C@@H](C)C(=O)NCC(=O)N1CCC[C@H]1C(=O)N[C@@H](C)C(=O)N[C@H](C(=O)N[C@@H](C)C(=O)N[C@H](C(=O)N[C@H](C(=O)NCC(=O)N[C@@H](CCC(N)=O)C(=O)N[C@@H](C)C(=O)N[C@@H](C)C(=O)N[C@H](C(=O)N[C@H](C(=O)N[C@H](C(=O)N[C@@H](CCCCN)C(N)=O)C(C)C)C(C)C)[C@@H](C)O)C(C)C)C(C)C)C(C)C)[C@@H](C)CC` the MIC was 32 µM (KCTC 1682, Mueller-Hinton broth; 16 h, 37 °C; growth inhibition over 99%).
With `CCCCCCC/C=C/C(=O)N1CC(=O)/C(=C(\C)O)C1=O` the MIC was 3.13 µg/mL (K12 ΔtolC).
With `CC[C@H](C)[C@H](NC(=O)CNC(=O)[C@H](CC(=O)O)NC(=O)[C@H](CCCNC(=N)N)NC(=O)[C@@H](NC(=O)[C@H](CC(N)=O)NC(=O)[C@H](CCCNC(=N)N)NC(=O)CNC(=O)[C@@H](NC(=O)[C@H](CCCCN)NC(=O)[C@H](CCC(=O)O)NC(=O)[C@@H](NC(=O)[C@H](CCCCN)NC(=O)[C@H](CCCCN)NC(=O)[C@H](Cc1ccccc1)NC(=O)[C@@H](NC(=O)[C@H](CCCCN)NC(=O)[C@H](Cc1c[nH]c2ccccc12)NC(=O)[C@@H](N)CCC(=O)O)[C@@H](C)CC)[C@@H](C)CC)C(C)C)C(C)C)C(=O)N[C@H](C(=O)N[C@@H](CCCCN)C(=O)N[C@@H](C)C(=O)NCC(=O)N1CCC[C@H]1C(=O)N[C@@H](C)C(=O)N[C@H](C(=O)N[C@@H](C)C(=O)N[C@H](C(=O)N[C@H](C(=O)NCC(=O)N[C@@H](CCC(N)=O)C(=O)N[C@@H](C)C(=O)N[C@@H](C)C(=O)N[C@H](C(=O)N[C@H](C(=O)N[C@H](C(=O)N[C@@H](CCCCN)C(N)=O)C(C)C)C(C)C)[C@@H](C)O)C(C)C)C(C)C)C(C)C)[C@@H](C)CC` the MIC was 8 µM (KCTC 1682, Mueller-Hinton broth; 16 h, 37 °C; growth inhibition over 99%).
For `CC[C@H](C)[C@H](NC(=O)[C@H](CC(C)C)NC(=O)[C@H](CCCNC(=N)N)NC(=O)[C@@H](N)CCCNC(=N)N)C(=O)N[C@@H](CCCNC(=N)N)C(=O)N[C@@H](CCCCN)C(=O)N[C@@H](CC(C)C)C(=O)N[C@@H](CCCCN)C(=O)NCC(=O)N[C@@H](CC(C)C)C(=O)N[C@@H](CCCCN)C(=O)N[C@@H](CCCCN)C(=O)N[C@@H](Cc1ccc(O)cc1)C(=O)N[C@@H](CC(C)C)C(=O)N[C@@H](Cc1ccc(O)cc1)C(=O)N[C@@H](Cc1ccccc1)C(=O)N[C@@H](CCCCN)C(=O)N[C@@H](CC(C)C)C(=O)N[C@@H](CCC(N)=O)C(=O)N[C@@H](CC(C)C)C(=O)N[C@@H](CC(C)C)C(=O)N[C@@H](CCCCN)C(=O)N[C@@H](CCCCN)C(N)=O`, the MIC was 16 µM (broth microdilution; KCTC 1682, Mueller-Hinton broth; together with: NH4Cl 6 µM).
`N=C(N)c1ccc(OCCCCCOc2ccc(C(=N)N)cc2)cc1` has an MIC of greater than 200 µg/mL (mcr-1; 20 h, compound alone).
With `C[C@@H](O)[C@H]1C(=O)N2C(C(=O)O)=C(S[C@@H]3CN[C@H](C(=O)Nc4cccc(C(=O)O)c4)C3)[C@H](C)[C@H]12` the MIC was less than 0.09 µg/mL (BL21(DE3) carrying Ftu-1).

Excerpt of the above:
For `C[C@@H](O)[C@H]1C(=O)N2C(C(=O)O)=C(S[C@@H]3CN[C@H](C(=O)N(C)C)C3)[C@H](C)[C@H]12`, the MIC was no more than 0.06 µg/mL (DH5α empty vector).
`CC[C@H](C)[C@H](NC(=O)[C@H](CCCNC(=N)N)NC(=O)[C@H](CCC(N)=O)NC(=O)[C@@H](NC(=O)[C@@H](NC(=O)[C@H](CCC(N)=O)NC(=O)[C@H](C)N)[C@@H](C)CC)C(C)C)C(=O)N[C@@H](CCCCN)C(=O)N[C@@H](CC(=O)O)C(=O)N[C@@H](Cc1ccccc1)C(=O)N[C@@H](CC(C)C)C(=O)N[C@@H](CCCNC(=N)N)C(N)=O` gave an MIC of 240 ± 86 µM (broth microdilution; K12; 16 h, 37 °C).
